{"data": "Measured values gathered from unrelated publications", "note": "Each line is one published result; not all experiments were run side by side. Several values in a cell are separate wells, animals, samples, runs or records. ± gives the spread as reported."}
{"SMILES": "CC(C)NCC(O)c1ccc(O)c(O)c1 (stereo not drawn)", "test system": "ventricular cardiomyocytes, C57BL/6 mouse", "setting": "dose not given, 0.088 s", "measurement": "sarcomere length", "result": "1.72 µm"}
{"SMILES": "O=C(Nc1cccc(C2=NCCN2)c1)Nc1cccc(C2=NCCN2)c1", "target or system": "Theileria equi", "test": "parasite growth, flow cytometry", "test system": "horse erythrocytes, USDA Florida strain", "setting": "0.005375 µM, 72 h", "measurement": "inhibition", "result": "42.4%"}
{"SMILES": "Cc1cc(=O)c(-c2ccc(OCCSc3ccc(C(F)(F)F)cn3)cc2)c(C)[nH]1", "target or system": "Plasmodium yoelii", "test system": "17XL", "setting": "384-well", "measurement": "IC50", "result": "454 ± 355 nM"}
{"SMILES": "OC(CCN1CCCCC1)(c1ccccc1)C1CC2C=CC1C2 (stereo not drawn)", "test": "resting-state EEG", "test system": "healthy elderly humans", "setting": "oral, 4 mg, eyes open, LS mean", "measurement": "EEG Beta2-power Pz-O1", "result": "0.8 µV²"}
{"SMILES": "O=C(/C=C/C=C/C=C/C1CCCCC1)NC1=C[C@@](O)(/C=C/C=C/C=C/C(=O)NC2=C(O)CCC2=O)[C@@H]2O[C@@H]2C1=O", "target or system": "snuc2a", "test": "cell growth, inhibitor, CellTiter-Glo luminescence", "setting": "78 h", "scale": "baseline: day 0 cell count", "measurement": "GI50", "result": "16700 nM"}
{"SMILES": "Cc1[nH]c(C)c([N+](=O)[O-])c(=O)c1-c1ccc(Oc2ccc(OC(F)(F)F)cc2)cc1", "target or system": "Plasmodium yoelii", "test system": "17XL", "setting": "384-well", "measurement": "IC50", "result": "834 ± 810 nM"}
{"SMILES": "CC(C)(C)OC(=O)Nc1ccc(-c2cc(C(=O)NCCCCCCC(=O)NO)no2)cc1", "target or system": "HBL-1", "setting": "1 µM, 120 h", "measurement": "viability", "result": "0.169%"}
{"SMILES": "Cc1[nH]c(C)c(-c2ccc(-c3cc(C(F)(F)F)cc(C(F)(F)F)c3)nc2)c(=O)c1Br", "target or system": "Plasmodium yoelii", "test system": "17XL", "setting": "384-well", "measurement": "IC50", "result": "92 ± 65 nM"}
{"SMILES": "Cn1cc(-c2ccc(-c3cncc(Cl)c3N3CCC4(CCNC4=O)CC3)cc2)cn1", "target or system": "COLO 205", "test": "gene expression, microarray, refers to: S100P mRNA", "setting": "concentration not given, 2 h", "scale": "baseline: untreated cells", "measurement": "log2 fold change", "result": 4.48}
{"SMILES": "C[C@H]1O[C@@H](O[C@H]2CC[C@@]3(C)[C@@H](CC[C@]4(C)[C@@H]3C=C[C@]35OC[C@@]6(CCC(C)(C)C[C@H]63)[C@@H](O)C[C@]54C)[C@]2(C)CO)[C@H](O)[C@@H](O[C@@H]2O[C@H](CO)[C@@H](O)[C@H](O)[C@H]2O)[C@H]1O", "test": "Western blot, refers to: caspase3", "test system": "chronic-plus-binge ethanol-fed mice, liver", "setting": "dose not given, medium dose, unit not given", "scale": "baseline: β-actin", "measurement": "protein level", "result": "0.307 and 0.795 and 0.758"}
{"SMILES": "O=C(c1ccc(C(=O)N2CCC(N3CCCC3)CC2)c(Nc2ccccc2)c1)N1CCC(N2CCCC2)CC1", "target or system": "HBL-1", "setting": "0.5 µM, 120 h", "measurement": "viability", "result": "111%"}
{"SMILES": "NC(=O)c1cnc2[nH]ccc2c1N[C@@H]1[C@@H]2CC3C[C@H]1C[C@@](O)(C3)C2", "test": "flow cytometry", "test system": "Japanese healthy men, blood", "setting": "oral, 10 mg twice daily, 72 h after day 7 dose", "scale": "baseline: baseline", "measurement": "CD8+ memory T-cell change", "result": "-0.25%"}
{"SMILES": "CCCCCCCCc1c(C)[nH]c(C)c(C#N)c1=O", "target or system": "Plasmodium yoelii", "test system": "17XL", "setting": "384-well", "measurement": "IC50", "result": "99 ± 25 nM"}
{"SMILES": "CC(=O)ON=C1C=CC(=C(C#N)c2ccccc2)C=C1", "target or system": "pig CK1 delta/epsilon", "test": "enzyme activity, inhibitor, ADP-Glo", "setting": "2 µM, about MIC/10, together with: ATP 10 µM", "measurement": "remaining activity", "result": "78%"}
{"SMILES": "COc1ccc(C#Cc2ccc(-c3c(C)[nH]c(C)c(Cl)c3=O)cc2)cc1", "target or system": "Plasmodium yoelii", "test system": "17XL", "setting": "384-well", "measurement": "IC50", "result": "290 ± 120 nM"}
{"SMILES": "c1coc(-c2n[nH]cc2-c2ccnc3ccccc23)c1", "target or system": "FPK1 (Candida albicans)", "test": "kinase binding, MIB/MS competition", "test system": "Candida albicans lysate", "setting": "1 µM", "scale": "baseline: DMSO", "measurement": "log2 fold change", "result": -0.23}
{"SMILES": "Nc1ncn([C@H]2C[C@H](O)[C@@H](CO)O2)c(=O)n1", "target or system": "HBL-1", "setting": "1 µM, 120 h", "measurement": "viability", "result": "31.5%"}
{"SMILES": "CCOc1ccc2cc(-c3nn(CC4CCN(C)CC4)c4ncnc(N)c34)ccc2n1", "target or system": "Theileria equi", "test": "hydroethidine flow cytometry", "test system": "USDA Florida", "setting": "3 µM, 72 h", "measurement": "% of maximum PPE", "result": "90.6%"}
{"SMILES": "O=C(Nc1ccc(OC2CCN(Cc3ccc(F)cc3)C2)c(Cl)c1)c1cccs1 (stereo not drawn)", "target or system": "Plasmodium yoelii", "test system": "17XL", "setting": "384-well", "measurement": "IC50", "result": "2180 ± 1610 nM"}
{"SMILES": "CCOc1ccc2cc(-c3nn(CC4CCN(C)CC4)c4ncnc(N)c34)ccc2c1", "target or system": "Theileria equi", "test": "hydroethidine flow cytometry", "test system": "USDA Florida", "setting": "30 µM, 72 h", "measurement": "% of maximum PPE", "result": "6.95%"}
{"SMILES": "CCOC(=O)CCNc1cc(N2CCc3ccccc3CC2)nc(-c2cccnc2)n1", "target or system": "HBL-1", "setting": "1 µM, 120 h", "measurement": "viability", "result": "100%"}
{"SMILES": "COc1ccc(F)cc1C(=O)NCc1ccc(-c2nn([C@@H](C)C(F)(F)F)c(N)c2C(N)=O)cc1", "target or system": "MEK1/MEK2 human", "test": "probe binding, competitive chemoproteomics", "test system": "live human PBMCs", "setting": "10 µM", "measurement": "inhibition", "result": "> 50%"}
{"SMILES": "CC(C)N(Cc1cnc2nc(N)nc(N)c2n1)c1ccc(Cl)c(Cl)c1", "target or system": "Plasmodium yoelii", "test system": "17XL", "setting": "384-well", "measurement": "IC50", "result": "> 20000 nM"}
{"SMILES": "N#C/C(=C\\c1ccc(-c2cc(Cl)ccc2Cl)o1)C(=O)Nc1cccc2ncccc12", "target or system": "HBL-1", "setting": "0.5 µM, 120 h", "measurement": "viability", "result": "113%"}
{"SMILES": "O=C(O)CNC(=O)Cc1ccccc1", "test system": "ventricular cardiomyocytes, C57BL/6 mouse", "setting": "dose not given, 0.468 s", "measurement": "sarcomere length", "result": "1.69 µm"}
{"SMILES": "CCOc1ccc2cc(-c3nn(CC4CCNCC4)c4ncnc(N)c34)ccc2c1", "target or system": "Theileria equi", "test": "hydroethidine flow cytometry", "test system": "USDA Florida", "setting": "0.3 µM, 72 h", "measurement": "% of maximum PPE", "result": "101%"}
{"SMILES": "c1ccc2c(Cc3c[nH]c4ccccc34)c[nH]c2c1", "target or system": "HBL-1", "setting": "0.1 µM, 120 h", "measurement": "viability", "result": "129%"}
{"SMILES": "Nc1nc(-c2ccccc2)nc2[nH]nc(Nc3ccc(C(F)(F)F)cc3)c12", "target or system": "coxsackievirus B3", "test system": "31-1-93, NMRI mice, CVB3 chronic myocarditis", "setting": "oral, 100 mg/kg twice daily, day 28, dosed days 3 to 10, score scale 0 to 7", "scale": "direction not given", "measurement": "clinical score", "result": 0.2}
{"SMILES": "COc1ccccc1S(=O)(=O)Nc1ccc2c(c1)CN(C)C(=O)N2", "target or system": "HBL-1", "setting": "1 µM, 120 h", "measurement": "viability", "result": "77.1%"}
{"SMILES": "Oc1ccccc1-c1n[nH]cc1-c1ccnc2ccccc12", "target or system": "GCN2 (Candida albicans)", "test": "kinase binding, MIB/MS competition", "test system": "Candida albicans lysate", "setting": "1 µM", "scale": "baseline: DMSO", "measurement": "log2 fold change", "result": -0.05}
{"SMILES": "CCCCCCCCCc1c(C)[nH]c2ccccc2c1=O", "target or system": "Plasmodium yoelii", "test system": "17XL", "setting": "384-well", "measurement": "IC50", "result": "354 ± 18 nM"}
{"SMILES": "CCOC(=O)Nc1cc(-c2ccc(C)c(NS(C)(=O)=O)c2)nn2c(C)nnc12", "target or system": "HBL-1", "setting": "0.1 µM, 120 h", "measurement": "viability", "result": "70.5%"}
{"SMILES": "CC(C)n1ncc2c(C(=O)NCC3(C)CNC3)cc(C3CC3)nc21", "target or system": "enterovirus D68", "test system": "recombinant US/MO/14-18947 wild type", "setting": "1500 nM", "measurement": "plaque reduction", "result": "100%"}
